Published values of several laboratories.
A part holds a random share of what one study measured.
Sequence of UniProt P27448 (whole entry, looked up): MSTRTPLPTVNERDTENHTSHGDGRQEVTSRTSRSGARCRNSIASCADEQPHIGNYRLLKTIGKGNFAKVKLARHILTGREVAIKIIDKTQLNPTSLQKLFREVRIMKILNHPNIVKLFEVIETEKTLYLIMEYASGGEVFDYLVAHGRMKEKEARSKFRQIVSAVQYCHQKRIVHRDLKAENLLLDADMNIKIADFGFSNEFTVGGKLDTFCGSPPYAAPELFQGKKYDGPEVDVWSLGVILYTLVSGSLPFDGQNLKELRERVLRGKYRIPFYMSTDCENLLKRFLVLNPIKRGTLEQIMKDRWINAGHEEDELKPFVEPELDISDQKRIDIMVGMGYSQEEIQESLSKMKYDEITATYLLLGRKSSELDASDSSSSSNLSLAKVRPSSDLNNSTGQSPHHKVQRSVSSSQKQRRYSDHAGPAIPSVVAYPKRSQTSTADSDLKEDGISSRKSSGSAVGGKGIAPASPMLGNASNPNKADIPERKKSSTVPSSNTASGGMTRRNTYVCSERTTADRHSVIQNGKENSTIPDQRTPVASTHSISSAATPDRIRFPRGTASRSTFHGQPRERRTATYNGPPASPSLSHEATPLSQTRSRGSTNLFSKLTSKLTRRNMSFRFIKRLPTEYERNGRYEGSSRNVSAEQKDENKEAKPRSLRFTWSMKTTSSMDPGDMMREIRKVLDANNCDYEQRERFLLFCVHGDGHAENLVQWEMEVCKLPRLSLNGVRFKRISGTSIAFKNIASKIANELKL
Sequence of UniProt P30530 (whole entry, looked up): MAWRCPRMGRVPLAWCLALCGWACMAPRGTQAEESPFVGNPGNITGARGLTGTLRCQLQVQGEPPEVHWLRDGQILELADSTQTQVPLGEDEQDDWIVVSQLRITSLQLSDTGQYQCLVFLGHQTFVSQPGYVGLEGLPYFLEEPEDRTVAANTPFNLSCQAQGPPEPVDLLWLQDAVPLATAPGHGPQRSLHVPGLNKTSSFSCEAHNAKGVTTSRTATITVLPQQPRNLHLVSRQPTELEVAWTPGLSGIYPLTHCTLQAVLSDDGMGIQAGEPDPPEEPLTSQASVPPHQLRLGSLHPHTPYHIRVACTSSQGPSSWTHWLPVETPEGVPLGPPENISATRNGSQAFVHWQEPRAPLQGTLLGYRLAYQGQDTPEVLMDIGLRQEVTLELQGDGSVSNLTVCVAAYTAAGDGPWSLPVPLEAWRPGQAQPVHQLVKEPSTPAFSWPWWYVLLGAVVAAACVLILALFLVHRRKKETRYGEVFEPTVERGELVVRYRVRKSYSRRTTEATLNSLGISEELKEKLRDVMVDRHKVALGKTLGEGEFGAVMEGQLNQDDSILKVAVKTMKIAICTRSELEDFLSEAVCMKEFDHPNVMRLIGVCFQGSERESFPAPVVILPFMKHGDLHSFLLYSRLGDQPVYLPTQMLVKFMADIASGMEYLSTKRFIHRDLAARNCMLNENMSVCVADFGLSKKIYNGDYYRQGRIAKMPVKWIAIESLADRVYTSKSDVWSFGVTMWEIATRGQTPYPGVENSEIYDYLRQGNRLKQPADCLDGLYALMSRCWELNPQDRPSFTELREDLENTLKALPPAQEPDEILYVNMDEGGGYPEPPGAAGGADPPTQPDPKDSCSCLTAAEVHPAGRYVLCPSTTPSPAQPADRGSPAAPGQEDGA
Sequence of UniProt Q8WTQ7 (whole entry, looked up): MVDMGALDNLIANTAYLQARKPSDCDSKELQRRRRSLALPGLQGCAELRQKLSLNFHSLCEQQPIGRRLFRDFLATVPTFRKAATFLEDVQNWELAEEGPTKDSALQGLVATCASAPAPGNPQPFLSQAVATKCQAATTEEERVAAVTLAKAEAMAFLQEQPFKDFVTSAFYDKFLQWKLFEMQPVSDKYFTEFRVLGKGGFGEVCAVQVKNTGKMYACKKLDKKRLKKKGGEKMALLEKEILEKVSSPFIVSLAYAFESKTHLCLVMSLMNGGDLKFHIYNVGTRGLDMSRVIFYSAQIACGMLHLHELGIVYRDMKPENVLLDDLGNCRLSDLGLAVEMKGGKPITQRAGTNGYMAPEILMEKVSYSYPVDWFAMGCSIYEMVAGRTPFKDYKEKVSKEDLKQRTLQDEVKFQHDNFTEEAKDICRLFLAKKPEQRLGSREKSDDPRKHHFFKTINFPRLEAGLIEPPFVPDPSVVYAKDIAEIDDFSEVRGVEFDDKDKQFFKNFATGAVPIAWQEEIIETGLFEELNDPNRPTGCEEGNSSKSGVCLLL
Sequence of UniProt P51451 (whole entry, looked up): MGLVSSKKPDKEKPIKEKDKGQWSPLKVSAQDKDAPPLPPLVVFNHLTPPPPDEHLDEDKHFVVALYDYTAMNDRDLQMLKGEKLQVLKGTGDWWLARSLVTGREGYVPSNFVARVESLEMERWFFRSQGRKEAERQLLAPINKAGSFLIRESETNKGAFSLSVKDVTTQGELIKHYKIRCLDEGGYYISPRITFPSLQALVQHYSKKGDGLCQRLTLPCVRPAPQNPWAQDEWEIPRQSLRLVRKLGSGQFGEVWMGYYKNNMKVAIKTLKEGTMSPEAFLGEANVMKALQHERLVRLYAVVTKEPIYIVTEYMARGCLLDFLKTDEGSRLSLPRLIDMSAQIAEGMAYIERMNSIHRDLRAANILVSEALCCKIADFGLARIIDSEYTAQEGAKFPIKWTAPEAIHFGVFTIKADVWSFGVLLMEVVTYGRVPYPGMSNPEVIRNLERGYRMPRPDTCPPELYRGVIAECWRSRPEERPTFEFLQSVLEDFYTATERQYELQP
Sequence of UniProt Q96PF2 (whole entry, looked up): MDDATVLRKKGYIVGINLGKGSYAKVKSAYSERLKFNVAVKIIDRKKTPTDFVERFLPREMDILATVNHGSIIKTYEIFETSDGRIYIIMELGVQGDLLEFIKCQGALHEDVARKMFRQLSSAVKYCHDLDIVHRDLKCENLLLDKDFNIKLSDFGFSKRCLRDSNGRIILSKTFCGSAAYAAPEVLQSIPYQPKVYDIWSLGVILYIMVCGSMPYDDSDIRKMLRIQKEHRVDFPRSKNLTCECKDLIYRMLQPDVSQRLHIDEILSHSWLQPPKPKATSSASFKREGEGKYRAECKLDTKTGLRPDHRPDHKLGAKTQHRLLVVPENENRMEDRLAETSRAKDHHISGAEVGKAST
Sequence of UniProt Q86UX6 (whole entry, looked up): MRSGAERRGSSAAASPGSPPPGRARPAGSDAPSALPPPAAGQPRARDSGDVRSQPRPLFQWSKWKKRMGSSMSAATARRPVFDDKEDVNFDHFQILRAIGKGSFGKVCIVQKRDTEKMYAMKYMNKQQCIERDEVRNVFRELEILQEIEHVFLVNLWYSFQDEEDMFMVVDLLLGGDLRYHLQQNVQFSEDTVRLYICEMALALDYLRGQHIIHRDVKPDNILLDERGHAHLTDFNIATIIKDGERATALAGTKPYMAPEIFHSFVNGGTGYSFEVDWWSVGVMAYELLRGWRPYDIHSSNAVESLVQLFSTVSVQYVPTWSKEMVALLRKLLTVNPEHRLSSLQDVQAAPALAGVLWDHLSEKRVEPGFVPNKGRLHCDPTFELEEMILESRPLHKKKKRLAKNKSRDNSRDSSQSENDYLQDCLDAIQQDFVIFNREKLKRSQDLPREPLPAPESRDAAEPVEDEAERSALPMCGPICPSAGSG

Study 1
SMILES: C[C@@H](c1cccc(C#N)c1)n1cc(Cl)cc(C(N)=O)c1=N
Effect on: cell-free assay
Method: competition with immobilised ligand
Tested at: 1 µM
For Interleukin-1 receptor-associated kinase 4 (IRAK4, Homo sapiens, UniProt Q9NWZ3): remaining binding read 87%.
For Serine/threonine-protein kinase pim-1 (PIM1, Homo sapiens, UniProt P11309): remaining binding read 100%.
For Mitogen-activated protein kinase kinase kinase kinase 5 (MAP4K5, Homo sapiens, UniProt Q9Y4K4): remaining binding read 96%.
It gave 95% for remaining binding (Uncharacterized serine/threonine-protein kinase SBK3 (SBK3, Homo sapiens, UniProt P0C264)).
It gave 92% for remaining binding (Ephrin type-A receptor 3 (EPHA3, Homo sapiens, UniProt P29320)).
The remaining binding was 100% (Epidermal growth factor receptor (EGFR, Homo sapiens, UniProt P00533)).
The remaining binding was 82% (Mitogen-activated protein kinase kinase kinase 1 (MAP3K1, Homo sapiens, UniProt Q13233)).
The remaining binding was 82% (Rhodopsin kinase GRK7 (GRK7, Homo sapiens, UniProt Q8WTQ7)).
The remaining binding was 98% (MAP/microtubule affinity-regulating kinase 3 (MARK3, Homo sapiens, UniProt P27448)).
For Insulin receptor-related protein (INSRR, Homo sapiens, UniProt P14616): remaining binding read 100%.
Tyrosine-protein kinase CSK (CSK, Homo sapiens, UniProt P41240) — remaining binding: 97%.
For Vascular endothelial growth factor receptor 2 (KDR, Homo sapiens, UniProt P35968): remaining binding read 73%.
For Serine/threonine-protein kinase 32C (STK32C, Homo sapiens, UniProt Q86UX6): remaining binding read 100%.

Study 2
Cell line: A-375
Tested at: 100 µM
Time: 18 h
For `CC(=O)Oc1cc(C)c(OC(C)=O)c2ccccc12`, the viability was 17.2%.
With `CC(C)[C@H](N)C(=O)OCC(CO)OCn1cnc2c(=O)nc(N)[nH]c21` (some centres unmarked) the viability was 80%.
`COc1ccc(-n2nc(C(N)=O)c3c2C(=O)N(c2ccc(N4CCCCC4=O)cc2)CC3)cc1` has a viability of 88.5%.
With `Nc1nc(F)nc2c1ncn2[C@@H]1O[C@H](COP(=O)(O)O)[C@@H](O)[C@@H]1O` the viability was 93%.
For `NC(=O)OCC(COC(N)=O)c1ccccc1`, the viability was 101%.
`O=C1C(CC[S+]([O-])c2ccccc2)C(=O)N(c2ccccc2)N1c1ccccc1` (centres unmarked) has a viability of 89.1%.

Study 3
Structure (SMILES): Nc1cccc(-c2cc3c(Oc4cccc(O)c4)ncnc3[nH]2)c1
Effect on: enzyme activity
Mode: inhibitor
Tested at: 0.5 µM
Reference: control
For Calcium/calmodulin-dependent protein kinase type II subunit beta (CAMK2B, Homo sapiens, UniProt Q13554): remaining activity read 101%.
3-phosphoinositide-dependent protein kinase 1 (PDPK1, Homo sapiens, UniProt O15530) — remaining activity: 86.8%.
For Cyclin-dependent kinase 6, with cyclin D3 (CDK6, Homo sapiens, UniProt Q00534): remaining activity read 91.3%.
Serine/threonine-protein kinase 16 (STK16, Homo sapiens, UniProt O75716) — remaining activity: 70.4%.
Tyrosine-protein kinase receptor UFO (AXL, Homo sapiens, UniProt P30530) — remaining activity: 75.9%.
Serine/threonine-protein kinase WNK3 (WNK3, Homo sapiens, UniProt Q9BYP7) — remaining activity: 88.5%.
It gave 38.1% for remaining activity (Tyrosine-protein kinase Blk (BLK, Homo sapiens, UniProt P51451)).
The remaining activity was 100% (Homeodomain-interacting protein kinase 2 (HIPK2, Homo sapiens, UniProt Q9H2X6)).
The remaining activity was 95.6% (Testis-specific serine/threonine-protein kinase 2 (TSSK2, Homo sapiens, UniProt Q96PF2)).
The remaining activity was 5.5% (Tyrosine-protein kinase ABL1 (ABL1, Homo sapiens, UniProt P00519)).
For Serine/threonine-protein kinase 17A (STK17A, Homo sapiens, UniProt Q9UEE5): remaining activity read 93.7%.
Phosphorylase b kinase gamma catalytic chain, skeletal muscle/heart isoform (PHKG1, Homo sapiens, UniProt Q16816) — remaining activity: 81.5%.
For Dual specificity tyrosine-phosphorylation-regulated kinase 3 (DYRK3, Homo sapiens, UniProt O43781): remaining activity read 89.8%.

Study 4
Organism: Sarcocystis neurona
Effect on: parasite growth
Tested at: 10 µM
Setting: secondary screen
`CCc1c(C)[nH]c2c1C(=O)C(CN1CCOCC1)CC2` (centres unmarked) has an inhibition of -35.7%.
For `CC1=C(CC(=O)O)c2cc(F)ccc2/C1=C\c1ccc([S+](C)[O-])cc1` (centres unmarked), the inhibition was -39.8%.
`O=C(NCCN1CCOCC1)c1ccc(Cl)cc1` gave an inhibition of -37.2%.
With `COCc1c(C(C)C)nc(C(C)C)c(/C=C/[C@@H](O)C[C@@H](O)CC(=O)O)c1-c1ccc(F)cc1` the inhibition was 31.2%.
With `C#C[C@]1(O)CC[C@H]2[C@@H]3CCc4cc(O)ccc4[C@H]3CC[C@@]21C` the inhibition was -77.9%.
`CCCc1nc(C)c2c(=O)[nH]c(-c3cc(S(=O)(=O)N4CCN(CC)CC4)ccc3OCC)nn12.O=C(O)CC(O)(CC(=O)O)C(=O)O` gave an inhibition of -55%.
The inhibition of `CCC1(c2ccccc2)C(=O)NCNC1=O` is reported as -28.5%.
For `CC(=O)[C@H]1CC[C@H]2[C@@H]3CCC4=CC(=O)CC[C@]4(C)[C@H]3CC[C@]12C`, the inhibition was -11.1%.
For `CC[C@@]1(O)C(=O)OCc2c1cc1n(c2=O)Cc2cc3c(CN(C)C)c(O)ccc3nc2-1`, the inhibition was -38.8%.

Excerpt of the above (study 4):
`O=C(NCCN1CCOCC1)c1ccc(Cl)cc1` gave an inhibition of -37.2%.
For `CC[C@@]1(O)C(=O)OCc2c1cc1n(c2=O)Cc2cc3c(CN(C)C)c(O)ccc3nc2-1`, the inhibition was -38.8%.
`CCc1c(C)[nH]c2c1C(=O)C(CN1CCOCC1)CC2` (centres unmarked) has an inhibition of -35.7%.
